Literature values, collected from citations in different studies.
Each line is one published result; not all experiments were run side by side.

`C[C@@H](O)[C@H](NC(=O)OP(=O)(O)OC[C@H]1O[C@@H](n2cnc3c(N)ncnc32)[C@H](O)[C@@H]1O)C(=O)O` gave a half-life of 0.0583 h (pH 7.5, with: 2 mM Mg2+).
`O=C1CCC(N2Cc3ccccc3C2=O)C(=O)N1` (stereo not shown) has a half-life of 1.98 h (human plasma).
With `CC(C)(C)C1=CC(=NNC(=O)c2ccncc2)C=C(C(C)(C)C)C1=O` the half-life was 0.15 h (human liver microsomes).
`CC[C@H](C)[C@H](NC(=O)[C@H](Cc1ccc(O)cc1)NC(=O)[C@@H](NC(=O)[C@H](CCCNC(=N)N)NC(=O)[C@@H](N)CC(=O)O)C(C)C)C(=O)N[C@@H](Cc1c[nH]cn1)C(=O)N1CCC[C@H]1C(=O)O`: half-life “increased” (circulation; ACE blockade).
`COc1cc2c(NC3CCN(C)CC3)nc(N3CCCN(C)CC3)nc2cc1OCc1ccccc1` gave a half-life of greater than 4 h (rat plasma; plasma stability).
With `Cc1cn(C2C=CC(COP(=O)(O)OP(=O)(O)O)O2)c(=O)[nH]c1=O` (stereo not shown) the half-life was 59 h (CEM/0 cell extract).
With `Cc1ccccc1-c1cc(N2CCNCC2)ncc1N(C)C(=O)C(C)(C)c1cc(C(F)(F)F)cc(C(F)(F)F)c1` the half-life was 69.6 h (healthy volunteers, plasma; oral, 450 mg, single dose, netupitant alone).
`CC[C@H](C)[C@H](NC(=O)CNC(=O)CNC(=O)c1ccc2c(c1)C(=O)OC21c2ccc(O)cc2Oc2cc(O)ccc21)C(=O)N[C@@H](Cc1ccc(O)cc1)C(=O)N[C@@H](C)C(=O)N[C@@H](C)C(=O)N1CCC[C@H]1C(=O)N(C)[C@@H](Cc1ccccc1)C(=O)N[C@@H](CCCCN)C(=O)N[C@@H](CCCCN)C(=O)N[C@@H](CCCCN)C(=O)N[C@@H](C)C(N)=O` has a half-life of 0.323 h (cytosolic lysate; 3 mg/mL total protein).
With `Cc1ccccc1-c1cc(N2CC[N+](C)([O-])CC2)ncc1N(C)C(=O)C(C)(C)c1cc(C(F)(F)F)cc(C(F)(F)F)c1` the half-life was 43 h (healthy volunteers, plasma; oral, dose not given, netupitant-palonosetron, fed).
For `O=C([O-])CN(CC(=O)[O-])c1ccccc1N(CC(=O)[O-])CC(=O)[O-].[Mn+2]`, the half-life was 19.1 h (aqueous solution; pH 7.4, 25 °C, with: Cu(II)).
`CN1CCN(c2cc(-c3ccccc3CO)c(N(C)C(=O)C(C)(C)c3cc(C(F)(F)F)cc(C(F)(F)F)c3)cn2)CC1` has a half-life of 67.9 h (healthy volunteers, plasma; oral, 450 mg, single dose, netupitant alone).
`CCCCCCCCc1ccc(CCC(N)(CO)COP(=O)(O)O)cc1` (stereo not shown) has a half-life of 25 h.
With `O=C([O-])CN1CCOCCN(CC(=O)[O-])Cc2cccc(n2)C1.[Mn+2]` the half-life was 11.1 h (pH 6.0, 310 K, with: 25 mM Zn2+).

Repeated from above:
With `Cc1ccccc1-c1cc(N2CCNCC2)ncc1N(C)C(=O)C(C)(C)c1cc(C(F)(F)F)cc(C(F)(F)F)c1` the half-life was 69.6 h (healthy volunteers, plasma; oral, 450 mg, single dose, netupitant alone).
